# Results pooled from the literature.
# Every numbered part comes from another study and shows a few of its results, in no order.

# Series 1
# Target: Cyclic AMP-dependent transcription factor ATF-1 (ATF1, Homo sapiens, UniProt P18846, residues 1-271, full length assumed)
# Technique: protein-binding microarray
# Form: double-stranded DNA, one strand shown
# Matrix: in vitro
# Tested at: not given
# Setting: k-mer, scored over probes, only values ≥0.25
# Direction: higher = stronger binding
# Residues (chain): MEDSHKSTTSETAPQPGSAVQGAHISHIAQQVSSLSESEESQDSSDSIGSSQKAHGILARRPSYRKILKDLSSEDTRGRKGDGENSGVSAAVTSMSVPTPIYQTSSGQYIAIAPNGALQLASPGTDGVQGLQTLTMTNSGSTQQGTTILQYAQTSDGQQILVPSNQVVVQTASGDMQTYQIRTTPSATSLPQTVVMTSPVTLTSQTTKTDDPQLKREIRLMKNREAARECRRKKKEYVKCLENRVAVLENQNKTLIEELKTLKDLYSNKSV
Oligonucleotide,E-score
CGTCATC,0.489
AATGACG,0.464
ACGTCGA,0.302
AACCCAC,0.25
CTCTGAC,0.28
CAATGAC,0.263
ACGTAAC,0.438
ACATCAT,0.29
GTCATGA,0.356
ACATCAC,0.358
ACGTACT,0.338
ATCACAT,0.303
AGTTACG,0.265
TGCGTAA,0.297
GACGTAC,0.379
AACGTCA,0.479
GCACGTA,0.302
AACCCCA,0.259
CGTCAGC,0.392
GTCATAA,0.354
AGGTGAC,0.305
CTACGTA,0.443
AAACACA,0.253

# Series 2
# Target: RNA binding protein fox-1 homolog 2, RRM domain, GST-SBP tag (RBFOX2, Homo sapiens, UniProt O43251-10, residues 100-194)
# Technique: RNA Bind-n-Seq
# Form: RNA
# Matrix: in vitro
# Tested at: 365 nM
# Setting: natural RNA segment, single round, ends assumed
# Relative to: no-protein control
# Direction: higher = stronger binding
# Shared flanks, not repeated: GGGAGUUCUACAGUCCGACGAUC … UGGAAUUCUCGGGUGCCAA
# Construct (chain): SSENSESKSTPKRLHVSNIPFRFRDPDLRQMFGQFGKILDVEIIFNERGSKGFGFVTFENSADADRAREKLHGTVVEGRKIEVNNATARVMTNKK
Oligonucleotide,RBNS enrichment (R)
GAGGUCUUGAUUUCACCAUUGUCGGUGAAGAAAAUUUUCAAUAAAUAUGUAUUACCCGUCUGAAGCUAAAGAUACUGUGUAACGGACUCUUUCCACUUGUCCCAUUUCUC,0.457
UAUUUAAGGUGAAAGCAUUUGACCCAGGGUGUCUUCAUCUUCAAUUUGGGUUUAAUGUUAUAGAAAUAAAUGAUGAUAAACUCUAACUAAUAAAGGAAAGAGAAUAUUUG,0.33
CCAGAACAGGCCACUCAUUUAGAAUUCUAGUGUUUCAAAACACUUUUGUGUGUUGUAUGGUCAAUAACAUUUUUCAUUACUGAUGGUGUCAUUCACCCAUUAGGUAAACA,0.223
CCUGCUUUUUGUUUUGGAUAGUACCUUGUCUGUAUAAGAAGCUGGCCUUUCCAUAGAGAGGCCCUGGAGUCUAAAAUUAUGAGAACAAUUAAUUUAUUUGUGUCUUCUAU,0.303
UUCUUUCAUGCCUCUUGUAAUGUUCUGAACAAACUUGAAUGAUGAAAGUAUUAAAGAGAUAUCAGUAUUUGAGGUUUGUAUUUUCUUCUGUCUCUGGGGAGGAUUUCUCA,0.34
AGGAUGGGCGGGGAUUGGCCGGGGCAGGUUGCCUUUACUAGCCAUUGGCCUGUGUCCGCCACUUGGAGUGCCCCAAAGGGGGCUUCUAACCAUUCCUUCCUCCAUCAGCC,0.235
CAAUGAUGUCAACACCCCAAGAAGAUCUACCCAACUAUAUCAAGUUCAGAGAUGGCAAUGGAUGAUGGGAAGAUAAGCUCAGAAGGGAAAGGAACCCCUUUGAGAGGUCG,0.369
CCAUGAUUUGAUUUGUGUUCUCAAAGCAAGUGUGCCCUUUGGUUCUGCAGAGCAGGCCCACUUCCUGUCCCUGAGCCCAUCUUCAUUUCUAGAGGGCUGACCCUGAGCAC,0.218
CACAAUGAAAAGUUUAUUUUAAACAUUGUUUAAUUAAAAUACCAUACAGUUCUCUUUUAAACAUCAAACCAUAAAAAGUGUAUUUUGUAAUUUUACUCUGACCUGCCGCA,1.12
UUUUUUCUAGCUGAGAAUUAAUAAUGGUCUUUCUCUUUGGAAGUCAUAUCAAAGUAUAAUUGAUGGGGGCCUUGUUUUGUUUUGUUUUGGUUUUUGGAGACAGGGUCUCA,2.29
CCCAGGGCAUCUGCCAACUCCAGCAUCAACUCAACUCCCACCGCAUACCUGGUGCUGUCCCUGGGCUCUGCUGGUCAUGUGAGGCAGCCUCGGAGAAGGAAGCAGAGGGU,1.14
UGUGUGGGGCUGAAGCGGCUUCUUUCCGCUGAACUUUUAUUUCCAUUUCAGCCUCGUGGCUUCUCUUAUUCAGGUCCAAGGCCCCUUAAAAACAAAACAUAUUAUCGCAA,0.566

# Series 3
# Target: Interferon regulatory factor 3, full length, phosphomimetic (IRF3, Homo sapiens, UniProt Q14653, residues 1-427, S386D/S396D/S398D/S402D/T404D/S405D)
# Technique: protein-binding microarray
# Form: double-stranded DNA, one strand shown
# Matrix: in vitro
# Tested at: 2540 nM top
# Setting: 60-bp whole probe
# Added: salmon DNA 0.4 mg/ml
# Relative to: random background probes
# Direction: higher = stronger binding
# Shared flanks, not repeated: GCCTAGCAC … GTCTTGATTCGCTTGACGCTGCTG
# Residues (chain): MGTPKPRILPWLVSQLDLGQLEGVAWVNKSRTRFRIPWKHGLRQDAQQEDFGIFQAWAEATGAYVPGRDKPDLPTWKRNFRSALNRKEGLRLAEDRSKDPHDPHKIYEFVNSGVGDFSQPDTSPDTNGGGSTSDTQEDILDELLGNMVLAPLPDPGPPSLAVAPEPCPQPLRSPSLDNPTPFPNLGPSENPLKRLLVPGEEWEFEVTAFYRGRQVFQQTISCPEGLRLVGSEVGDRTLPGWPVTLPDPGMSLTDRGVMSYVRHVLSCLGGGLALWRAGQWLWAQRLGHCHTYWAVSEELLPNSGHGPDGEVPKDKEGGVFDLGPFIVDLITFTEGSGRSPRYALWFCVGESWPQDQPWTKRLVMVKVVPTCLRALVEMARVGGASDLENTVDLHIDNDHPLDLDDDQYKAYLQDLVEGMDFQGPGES
Oligonucleotide,fitted relative affinity
TCATTTTTTTCCCTGAAACTGTGCTAG,1.18 z-score
TTAGGTATCGGTCTCTGTTAGTGCTAG,4.57 z-score
GAGTTCCTCTCTAGGCACTGGTGCTAG,0.778 z-score
TTAGGACTGGGGACTGGGTGAGTGCTA,-1.07 z-score
GACGGTATCAGACTGGGGACGTGCTAG,1.44 z-score
TGAAAATTAGTGTTTGCCCTAGTGCTA,-0.181 z-score
TTAGAACTGAGTATCGATTAGTGCTAG,0.254 z-score
TGAGGTTCCCTTTTCCTTTAGTGCTAG,6.48 z-score
TTAAGTTTCGGACTGGGTTAGTGCTAG,4.56 z-score
GACGGTTTCCTATCCCTGACGTGCTAG,6.36 z-score
TTAGGACTGCTACTGCTTCAGTGCTAG,-0.561 z-score
GAGTGGTTCTGCTTCTTAGCGTGCTAG,0.574 z-score
TTAGGTCTCCTTTTCGTTTAGTGCTAG,5.49 z-score
GACGGTTTCGAATTTCGGGACGTGCTA,5.37 z-score
TCAGTTTTCTAATGTTTTACTGTGCTA,2.71 z-score
TTAGGTATCGGGTTTTGGTTAGTGCTA,1.75 z-score
GACGAACTGGGGACTGCAGACGTGCTA,-0.572 z-score
TCGGTTTCCAAATTGTCTCTGTGCTAG,8.33 z-score
TCATGCTTGTATCTGGGACTGTGCTAG,-0.37 z-score
ACAAAGATTTTTATCAAATGGTGCTAG,0.0636 z-score
TTAGGCTTCGGGTATCGGTTAGTGCTA,0.0375 z-score
TTAGGACTGGGGTATCGGTTGGTGCTA,-0.459 z-score
TTCCCTTTCTCAACCTCCAGGTGCTAG,8.02 z-score
TCATTTTTTTTTTCATCATTGTGCTAG,1.48 z-score
TCAAGGCTGGTCTCTAACACTGTGCTA,-0.927 z-score

# Series 4
# Target: Ras GTPase-activating protein-binding protein 1, full length (G3BP1, Homo sapiens, UniProt Q13283)
# Chain of UniProt Q13283 (whole entry, looked up): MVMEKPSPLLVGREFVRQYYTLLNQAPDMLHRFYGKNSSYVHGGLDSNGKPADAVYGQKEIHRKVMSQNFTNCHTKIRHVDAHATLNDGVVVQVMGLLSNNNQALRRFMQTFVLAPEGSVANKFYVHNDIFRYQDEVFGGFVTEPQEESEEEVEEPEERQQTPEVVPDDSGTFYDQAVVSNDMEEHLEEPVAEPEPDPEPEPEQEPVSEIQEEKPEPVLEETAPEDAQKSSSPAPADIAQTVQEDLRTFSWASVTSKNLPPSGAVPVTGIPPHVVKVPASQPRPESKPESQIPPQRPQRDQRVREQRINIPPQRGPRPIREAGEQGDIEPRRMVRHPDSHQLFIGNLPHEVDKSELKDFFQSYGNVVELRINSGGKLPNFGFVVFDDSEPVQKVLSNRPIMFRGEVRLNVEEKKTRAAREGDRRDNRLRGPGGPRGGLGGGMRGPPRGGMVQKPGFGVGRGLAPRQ
# Technique: RNA Bind-n-Seq
# Form: RNA
# Matrix: in vitro
# Tested at: 200 nM
# Setting: whole 134-nt RNA, ends assumed
# Added: 150 mM LiCl
# Relative to: input library
# Direction: higher = stronger binding
# All molecules: 7-deaza-guanosine replaces G
# Shared flanks, not repeated: GGGAGUUCUACAGUCCGACGAUC … UGGAAUUCUCGGGUGUCAAGG
Oligonucleotide,log2 enrichment
CAAGUCCUGUGCUACACAUCGUAUGUACCGAAUCGGGUGGGUUUUUGGGAAAGGGAAAGUAUUAUGUUACGCCGUUCGGAUCUGCACUUC,-0.664
AGUCCUGUGCUACACAUCGUAUGUACCGAAUCAAAUUUAAAUUUUUAAACCCCCAAAAAAGUAUUAUGUUACGCCGUUCGGAUCUGCACU,0.597
GUCCUGUGCUACACAUCGUAUGUACCGAAUCGGGGAAAAAAAGGGGUUUGGGGAGGGGAAAGUAUUAUGUUACGCCGUUCGGAUCUGCAC,-1.23
ACCAUGCAGGUGGGCAUCUUUGGGAAAAAGGGCAAGGGGGGGAUAGGGAGGGGGGUAACACUUUGGGAACAGGUGGUCCCAGGUCGUUUC,0.312
CACAGACAACACGCACCCACACAGACACAGAGGGAAGGGGUAAAGAUGGGGACAGGGUGCACAGCAGGGCGGGGUAGGACCCCAGCCCCU,-0.406
UCCUCAAGUCCUGUGCUACACAUCGUAUGUACCGAAUCGGGUGGGUGGUGGAAAGUAUUAUGUUACGCCGUUCGGAUCUGCACUUCCAGC,0.151
GCAGGAAGUAAAAACAAAUGGAAAUGCUUCGGAUAGUGGCAGGGGUGGGGAAAGCUAAGGAAAGGGUGGGAUGGGAGUGGGUAAAGAGUU,0.312
UCAAGUCCUGUGCUACACAUCGUAUGUACCGAAUCGGUUUUUUUGGAAAGGAGGAAAGUAUUAUGUUACGCCGUUCGGAUCUGCACUUCC,0.202
AGUCCUGUGCUACACAUCGUAUGUACCGAAUCGGGAAAGGGAAAAAAAGGGUUUGGGAAAGUAUUAUGUUACGCCGUUCGGAUCUGCACU,-2.35
UGGGAGGUGGAUUUUGUUUAUUUUUUUAGCUGAUUUCCAGGGGUGGGAAUUUUUUUUUAAUAUGUGUCAUGAAUAAAGUUGUUUUUGAAA,-0.0452
CACAGACAACACGCACCCACACAGACACAGAGGGAAGGGGUUGGGAUGGGGACAGGGUAAACAGCAGGGCGGGGUAGGACCCCAGCCCCU,-0.431

# Excerpt of the above (series 1):
Oligonucleotide,E-score
ACGTCGA,0.302
AATGACG,0.464
GCACGTA,0.302
ACGTAAC,0.438
CAATGAC,0.263
GACGTAC,0.379
